Published values from different studies.
Numbered parts are unrelated; each lists some results of a single study. “And” joins repeats or separate records; there may be more than shown.
UniProt P23443, sequence (whole entry, looked up): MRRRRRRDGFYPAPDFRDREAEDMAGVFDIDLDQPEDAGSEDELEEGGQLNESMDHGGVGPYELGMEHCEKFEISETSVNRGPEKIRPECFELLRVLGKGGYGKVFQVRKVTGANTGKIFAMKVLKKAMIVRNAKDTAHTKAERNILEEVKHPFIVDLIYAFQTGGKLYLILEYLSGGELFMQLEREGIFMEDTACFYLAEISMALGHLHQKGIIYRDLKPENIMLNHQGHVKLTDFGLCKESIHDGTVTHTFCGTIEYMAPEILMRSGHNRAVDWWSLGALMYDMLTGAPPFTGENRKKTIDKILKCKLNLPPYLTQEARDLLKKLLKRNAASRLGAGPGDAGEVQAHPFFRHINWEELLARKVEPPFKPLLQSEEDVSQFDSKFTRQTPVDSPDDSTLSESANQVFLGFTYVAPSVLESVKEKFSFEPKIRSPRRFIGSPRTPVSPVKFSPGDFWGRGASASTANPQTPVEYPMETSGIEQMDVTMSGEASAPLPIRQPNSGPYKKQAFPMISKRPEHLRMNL
UniProt P08922, sequence (whole entry, looked up): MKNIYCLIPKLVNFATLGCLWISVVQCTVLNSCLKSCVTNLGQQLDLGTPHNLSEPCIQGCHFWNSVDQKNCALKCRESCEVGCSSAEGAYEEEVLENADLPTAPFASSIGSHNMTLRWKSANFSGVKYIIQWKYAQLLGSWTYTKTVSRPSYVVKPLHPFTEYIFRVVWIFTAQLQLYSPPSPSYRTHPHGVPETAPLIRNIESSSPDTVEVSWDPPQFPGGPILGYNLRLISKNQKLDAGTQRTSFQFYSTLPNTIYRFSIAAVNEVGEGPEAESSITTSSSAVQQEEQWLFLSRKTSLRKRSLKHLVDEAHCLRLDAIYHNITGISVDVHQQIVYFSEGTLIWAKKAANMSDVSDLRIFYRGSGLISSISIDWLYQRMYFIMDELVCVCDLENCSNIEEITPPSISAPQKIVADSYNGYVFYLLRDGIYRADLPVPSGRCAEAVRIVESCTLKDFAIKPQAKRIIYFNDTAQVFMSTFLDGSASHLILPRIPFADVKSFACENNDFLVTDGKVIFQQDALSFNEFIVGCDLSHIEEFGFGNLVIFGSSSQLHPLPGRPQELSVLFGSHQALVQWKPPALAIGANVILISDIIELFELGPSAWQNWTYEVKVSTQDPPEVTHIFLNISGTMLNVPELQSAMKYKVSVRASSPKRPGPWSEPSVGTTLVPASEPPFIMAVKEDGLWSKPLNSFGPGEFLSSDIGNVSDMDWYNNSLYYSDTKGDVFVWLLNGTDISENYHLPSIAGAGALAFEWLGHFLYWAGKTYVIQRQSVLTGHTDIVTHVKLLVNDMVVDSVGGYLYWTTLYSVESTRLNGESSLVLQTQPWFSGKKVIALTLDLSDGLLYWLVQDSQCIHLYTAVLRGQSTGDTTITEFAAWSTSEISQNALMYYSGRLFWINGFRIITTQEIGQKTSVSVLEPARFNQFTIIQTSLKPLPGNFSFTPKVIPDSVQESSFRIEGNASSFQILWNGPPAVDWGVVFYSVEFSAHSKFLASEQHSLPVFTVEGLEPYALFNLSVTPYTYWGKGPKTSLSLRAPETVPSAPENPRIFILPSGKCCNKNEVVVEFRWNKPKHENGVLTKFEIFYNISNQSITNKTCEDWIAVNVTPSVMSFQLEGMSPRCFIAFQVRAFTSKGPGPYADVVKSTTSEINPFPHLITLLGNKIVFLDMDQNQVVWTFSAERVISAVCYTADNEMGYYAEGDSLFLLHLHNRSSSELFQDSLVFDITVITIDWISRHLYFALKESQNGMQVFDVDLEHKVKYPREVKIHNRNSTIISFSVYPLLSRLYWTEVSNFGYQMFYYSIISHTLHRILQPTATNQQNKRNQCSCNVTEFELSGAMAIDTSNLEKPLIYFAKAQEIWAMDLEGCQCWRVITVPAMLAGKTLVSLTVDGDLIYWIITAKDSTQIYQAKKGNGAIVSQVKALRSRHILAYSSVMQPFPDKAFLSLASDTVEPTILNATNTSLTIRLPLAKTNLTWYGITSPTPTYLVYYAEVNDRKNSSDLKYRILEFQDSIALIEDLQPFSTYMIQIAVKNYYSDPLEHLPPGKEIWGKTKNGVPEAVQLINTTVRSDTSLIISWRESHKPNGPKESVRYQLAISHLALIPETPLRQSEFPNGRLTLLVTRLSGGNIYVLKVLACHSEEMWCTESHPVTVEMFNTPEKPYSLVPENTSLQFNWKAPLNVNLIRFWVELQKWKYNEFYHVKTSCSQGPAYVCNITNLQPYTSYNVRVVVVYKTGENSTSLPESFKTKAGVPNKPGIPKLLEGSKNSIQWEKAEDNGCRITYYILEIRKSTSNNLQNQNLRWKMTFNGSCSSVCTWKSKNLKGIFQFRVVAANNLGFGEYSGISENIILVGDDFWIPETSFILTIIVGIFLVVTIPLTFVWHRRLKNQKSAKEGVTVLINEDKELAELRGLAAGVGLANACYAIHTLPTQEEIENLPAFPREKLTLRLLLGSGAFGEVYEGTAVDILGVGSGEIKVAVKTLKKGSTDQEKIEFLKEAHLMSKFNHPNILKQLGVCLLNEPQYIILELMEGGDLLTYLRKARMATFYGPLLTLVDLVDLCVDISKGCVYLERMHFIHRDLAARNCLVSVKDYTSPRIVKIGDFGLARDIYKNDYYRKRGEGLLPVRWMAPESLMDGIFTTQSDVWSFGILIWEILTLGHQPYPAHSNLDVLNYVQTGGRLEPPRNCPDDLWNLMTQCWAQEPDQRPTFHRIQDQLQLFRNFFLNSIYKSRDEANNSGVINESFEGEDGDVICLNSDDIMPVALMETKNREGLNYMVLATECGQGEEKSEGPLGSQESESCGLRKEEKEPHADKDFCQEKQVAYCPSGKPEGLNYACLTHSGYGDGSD

Block 1 — method: microarray; reference: untreated
SMILES: COCCCCCCC1CC2C(CCC3(C)C(O)CCC23)c2ccc(O)cc21 (centres unmarked)
| cell line | test | conditions | log2 fold change |
| --- | --- | --- | --- |
| SK-OV-3 | refers to: ADAMTS14 | 50 µM | 0.0918 |
| A549 | refers to: ADAMTS14 | 50 µM | 0.185 |
| PANC-1 | refers to: ACTA2 | 10 µM | -0.302 |
| PANC-1 | refers to: GZMK | 10 µM | 3.35 |
| A549 | refers to: GZMK | 10 µM | 3.91 |
| SK-OV-3 | refers to: GADD45A | 50 µM | 2.65 |

Block 2 — effect on: thermal unfolding; method: differential scanning fluorimetry; concentration: 5.5 µM; direction: higher = more unfolded
Structure (SMILES): C[C@@H]1CN(c2ccc(-c3cc(C(=O)NCCOCCOCCOCCOCCOCCOCCNC(=O)/C=C/c4[nH]cc(C(=O)N[C@@H](CC(N)=O)c5ccc(F)c(Cl)c5)c4-c4ccc(Cl)cc4F)ccc3F)cc2NC(=O)c2ccc(F)cc2C(F)(F)F)C[C@H](C)N1C
WDR5: WD repeat-containing protein 5 (WDR5, Homo sapiens, UniProt P61964)
DCAF1: DDB1- and CUL4-associated factor 1 (DCAF1, Homo sapiens, UniProt Q9Y4B6)
UniProt Q9Y4B6, sequence (whole entry, looked up): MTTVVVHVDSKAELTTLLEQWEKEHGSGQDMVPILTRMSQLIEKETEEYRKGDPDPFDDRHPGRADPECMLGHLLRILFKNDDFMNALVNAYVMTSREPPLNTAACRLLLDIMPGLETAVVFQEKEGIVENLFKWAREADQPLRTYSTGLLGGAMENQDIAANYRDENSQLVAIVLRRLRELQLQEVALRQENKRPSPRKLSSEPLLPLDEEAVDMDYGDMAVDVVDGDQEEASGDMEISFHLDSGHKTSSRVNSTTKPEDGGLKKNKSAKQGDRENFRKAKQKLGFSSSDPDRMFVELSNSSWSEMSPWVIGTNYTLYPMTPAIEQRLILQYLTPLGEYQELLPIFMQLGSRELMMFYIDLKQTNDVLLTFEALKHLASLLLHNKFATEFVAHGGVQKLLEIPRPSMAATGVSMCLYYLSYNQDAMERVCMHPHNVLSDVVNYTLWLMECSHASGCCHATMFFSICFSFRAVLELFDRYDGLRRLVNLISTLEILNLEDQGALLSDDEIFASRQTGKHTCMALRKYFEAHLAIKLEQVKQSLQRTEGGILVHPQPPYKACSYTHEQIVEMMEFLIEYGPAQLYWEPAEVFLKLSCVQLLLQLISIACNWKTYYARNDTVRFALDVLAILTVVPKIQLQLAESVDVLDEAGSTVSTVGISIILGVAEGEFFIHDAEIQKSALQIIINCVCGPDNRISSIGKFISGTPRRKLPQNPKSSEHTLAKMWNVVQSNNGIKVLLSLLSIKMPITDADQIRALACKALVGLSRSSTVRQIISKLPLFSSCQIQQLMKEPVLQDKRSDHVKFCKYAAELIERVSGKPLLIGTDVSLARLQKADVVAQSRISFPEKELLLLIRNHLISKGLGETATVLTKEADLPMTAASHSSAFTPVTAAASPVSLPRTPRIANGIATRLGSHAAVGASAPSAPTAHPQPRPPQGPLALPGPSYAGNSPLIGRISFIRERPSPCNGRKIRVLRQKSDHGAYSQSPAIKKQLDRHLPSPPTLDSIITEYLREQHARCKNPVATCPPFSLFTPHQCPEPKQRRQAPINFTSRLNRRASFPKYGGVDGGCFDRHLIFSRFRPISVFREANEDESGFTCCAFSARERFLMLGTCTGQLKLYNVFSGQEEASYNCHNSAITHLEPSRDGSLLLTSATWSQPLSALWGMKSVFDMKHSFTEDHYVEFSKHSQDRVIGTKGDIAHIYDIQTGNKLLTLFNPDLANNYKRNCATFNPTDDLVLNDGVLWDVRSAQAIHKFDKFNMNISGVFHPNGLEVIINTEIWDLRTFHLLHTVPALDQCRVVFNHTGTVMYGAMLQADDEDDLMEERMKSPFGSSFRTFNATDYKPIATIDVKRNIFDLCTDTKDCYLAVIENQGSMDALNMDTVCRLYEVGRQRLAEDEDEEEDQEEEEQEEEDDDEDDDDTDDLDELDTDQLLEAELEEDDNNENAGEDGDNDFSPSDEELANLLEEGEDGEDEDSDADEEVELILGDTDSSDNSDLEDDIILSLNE
| target | conditions | SYPRO Orange fluorescence |
| --- | --- | --- |
| WDR5 | 75.41 °C | 50400 a.u. |
| DCAF1 | 28 °C | 7970 a.u. |
| DCAF1 | 79.61 °C | 40200 a.u. |
| WDR5 | 79.41 °C | 63700 a.u. |
| DCAF1 | 74.21 °C | 44500 a.u. |
| DCAF1 | 78.41 °C | 41000 a.u. |
| WDR5 | 40.2 °C | 14200 a.u. |
| WDR5 | 83.41 °C | 64400 a.u. |
| WDR5 | 87.41 °C | 58700 a.u. |
| DCAF1 | 35.2 °C | 9960 a.u. |
| WDR5 | 86.21 °C | 60400 a.u. |

Block 3 — cell line: HCC1569; effect on: CDK1 Thr14 phosphorylation; method: in-cell western; concentration: 12.35 nM; direction: lower = stronger inhibition
| SMILES | phospho-CDK1 (Thr14) level |
| --- | --- |
| Cc1ccc(O)c(C)c1-c1cnc2[nH]c(-c3cnc(N4CCC(CN5CCN(c6cc7c(cc6F)n(C6CCC(=O)NC6=O)c(=O)n7C)CC5)CC4)nc3)cc2c1C#N (centres unmarked) | 2.2 a.u. and -5.3 a.u. |
| Cc1ccc(O)c(C)c1-c1cnc2[nH]c(-c3cnc(N4CCC(CN5CCN(c6cc7c(cc6F)c(N6CCC(=O)NC6=O)nn7C)CC5)CC4)nc3)cc2c1C#N | 30.8 a.u. and 44.2 a.u. |
| Cc1ccc(O)c(C)c1-c1cnc2[nH]c(-c3cnc(N4CCC5(CC4)CC(N4CCN(c6ccc(NC7CCC(=O)NC7=O)cc6F)CC4)CO5)nc3)cc2c1C#N (centres unmarked) | 51.9 a.u. and 55.1 a.u. |
| Cc1ccc(O)c(C)c1-c1cnc2[nH]c(-c3cnc(N4CCC(CN5CCC(c6ccc(NC7CCC(=O)NC7=O)cc6F)CC5)CC4)nc3)cc2c1C#N (centres unmarked) | 35.7 a.u. and 7.49 a.u. |
| Cc1ccc(O)c(C)c1-c1cnc2[nH]c(-c3cnc(N4CCC(CN5CCN(c6ccc(NC7CCC(=O)NC7=O)cc6F)CC5)CC4)nc3)cc2c1C#N (centres unmarked) | 34.1 a.u. and 32.9 a.u. |

Block 4 — effect on: kinase activity
Compound: CNc1ncc2cc(-c3cc(OC)cc(OC)c3Cl)c(=O)n(CCc3ccc(NC(=O)C(C#N)=CC(C)(C)N4CCOCC4)cc3)c2n1
| target | conditions | inhibition [%] |
| --- | --- | --- |
| PIK3CA (Homo sapiens, UniProt P42336) | 1 µM | 9 |
| RPS6KB1 (Homo sapiens, UniProt P23443) | 1 µM | 0 |
| SGK2 (Homo sapiens, UniProt Q9HBY8) | 1 µM | 4 |
| CHUK (Homo sapiens, UniProt O15111) | 0.1 µM | 7 |
| TYK2 (Homo sapiens, UniProt P29597) | 1 µM | 2 |
| PHKG2 (Homo sapiens, UniProt P15735) | 1 µM | -1 |
| ERBB2 (Homo sapiens, UniProt P04626) | 1 µM | -12 |
| ROS1 (Homo sapiens, UniProt P08922) | 1 µM | 3 |
| TNK1 (Homo sapiens, UniProt Q13470) | 0.1 µM | 5 |
| RAF1 (Homo sapiens, UniProt P04049) | 0.1 µM | 13 |

Block 5 — organism: Arabidopsis thaliana; strain: Col-0; concentration: 50 µg/mL; notes: seed germination, single repetition
| Compound | hypocotyl length |
| --- | --- |
| CC(C)(C)c1ccc(Oc2ccc3c(c2)OC(O)(C(=O)O)C(=O)N3Cc2ccccc2)cc1 (centres unmarked) | 1.65 cm and 1.61 cm and 1.62 cm and 1.64 cm |
| O=C(O)C1(O)Oc2cc(Cl)ccc2N(Cc2ccccc2)C1=O (centres unmarked) | 1.32 cm and 1.3 cm and 1.31 cm and 1.36 cm and 1.35 cm |
| Cc1ccc2c(c1)OC(O)(C(=O)O)C(=O)N2Cc1ccccc1 (centres unmarked) | 1.62 cm and 1.63 cm and 1.69 cm and 1.68 cm |
| CCN1C(=O)C(O)(C(=O)O)Oc2cc(F)ccc21 (centres unmarked) | 1.61 cm and 1.63 cm and 1.62 cm and 1.65 cm |
| O=C(O)C1(O)Oc2ccccc2N(Cc2ccccc2)C1=O (centres unmarked) | 1.45 cm and 1.47 cm and 1.43 cm and 1.46 cm |

Block 6
Structure (SMILES): Cc1ncsc1-c1ccc(C(CO)NC(=O)C2CC(O)CN2C(=O)C(C(C)C)n2cc(-c3ccc(COc4c(-c5c(C)c(F)cc6[nH]ncc56)c(C5CC5)cc5c(N6CC7CC6CN7)nc(OC6CCOCC6)nc45)cc3)nn2)cc1 (centres unmarked)
| system | conditions | body weight |
| --- | --- | --- |
| mouse, lung LXFA sample B PDX | 30 mg/kg twice weekly, day 11 | 26.6 g |
| mouse, PK-59 xenograft | 10 mg/kg, day 0 | 25.6 g and 24.2 g and 24.3 g and 23 g and 22.4 g |
| mouse, PK-59 xenograft | 1 mg/kg, day 4 | 24.6 g and 26 g and 25.4 g and 25 g and 30.3 g |
| mouse, PK-59 xenograft | 3 mg/kg, day 7 | 24.9 g and 25.4 g and 25.2 g and 27.8 g and 24.4 g |
| mouse, GP5d xenograft | 30 mg/kg once weekly, day 7 | 29 g |
| mouse, PK-59 xenograft | 1 mg/kg, day 0 | 28.2 g and 24.1 g and 24.7 g and 23.6 g and 23.4 g |
| mouse, GP2d xenograft | 30 mg/kg once weekly, day 7 | 23.6 g |

Block 7 — cell line: U-87 MG; concentration: concentration not given; reference: DMSO
Structure (SMILES): CCN1/C(=C/C=C2\CCCC(/C=C/C3=[N+](CC)c4ccccc4C3(C)C)=C2NCCCCCCCCN2CCC(Nc3nc4ccccc4n3Cc3ccc(F)cc3)CC2)C(C)(C)c2ccccc21
| test | log2 fold change |
| --- | --- |
| refers to: SLC8A1 mRNA | -2.25 |
| refers to: PPP1R15A mRNA | 2.25 |
| refers to: CRHBP mRNA | 0.993 |
| refers to: GLI2 mRNA | -1.17 |
| refers to: GEMIN6 mRNA | -1.01 |
| refers to: ADCY3 mRNA | -1.24 |
| refers to: TSPOAP1 mRNA | -1.87 |
| refers to: CAMK1D mRNA | 1.12 |
| refers to: CEP152 mRNA | -1.25 |
| refers to: KIAA1958 mRNA | 1.11 |
| refers to: BARD1 mRNA | -1.39 |
| refers to: MMP16 mRNA | -0.894 |
| refers to: SIGLEC15 mRNA | -1.5 |
| refers to: CCDC28A mRNA | 0.972 |
| refers to: TMEM200B mRNA | -0.995 |
| refers to: MAP1LC3B2 mRNA | 2.09 |

Single results of other studies
SLC6A19: Sodium-dependent neutral amino acid transporter B(0)AT1 (SLC6A19, Homo sapiens, UniProt Q695T7)
UniProt Q695T7, sequence (whole entry, looked up): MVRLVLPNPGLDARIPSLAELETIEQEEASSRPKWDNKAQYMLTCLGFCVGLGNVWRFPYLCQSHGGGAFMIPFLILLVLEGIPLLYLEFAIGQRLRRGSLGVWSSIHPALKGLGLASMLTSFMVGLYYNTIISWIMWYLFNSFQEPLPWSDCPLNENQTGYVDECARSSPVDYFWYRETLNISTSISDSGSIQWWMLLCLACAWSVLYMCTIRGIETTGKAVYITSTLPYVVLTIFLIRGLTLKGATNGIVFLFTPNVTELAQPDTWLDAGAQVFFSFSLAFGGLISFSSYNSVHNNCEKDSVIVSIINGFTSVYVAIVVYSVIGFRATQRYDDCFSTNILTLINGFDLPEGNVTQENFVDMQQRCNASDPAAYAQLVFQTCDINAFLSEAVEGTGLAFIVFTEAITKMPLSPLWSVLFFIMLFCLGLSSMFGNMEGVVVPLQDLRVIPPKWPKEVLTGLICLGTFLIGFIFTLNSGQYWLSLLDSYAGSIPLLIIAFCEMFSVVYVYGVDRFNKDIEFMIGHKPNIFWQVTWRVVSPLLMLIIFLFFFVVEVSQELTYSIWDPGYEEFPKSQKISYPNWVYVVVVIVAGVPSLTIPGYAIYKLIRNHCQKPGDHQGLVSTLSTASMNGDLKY
KRAS: GTPase KRas (KRAS, Homo sapiens, UniProt P01116)
| Structure (SMILES) | target or system | test | system | conditions | scale | measurement | result |
| --- | --- | --- | --- | --- | --- | --- | --- |
| Clc1ccc(Nc2c3c(nc4ccccc24)CCC3)cc1 | Leishmania donovani | parasite growth | THP-1 | intracellular, amastigote |  | IC50 | 11500 nM |
| CC(C)NC(=O)COc1ccc(I)cc1 | SLC6A19 | inhibitor, FLIPR membrane potential | CHO-BC cells | 30 µM, unit not given | reference: no inhibitor | remaining transport activity | 0.249 |
| CN1CCC[C@H]1COc1nc2c(c(N3CCN(C(=O)C4CC4)[C@@H](CC#N)C3)n1)CCN(c1cccc3cccc(Cl)c13)C2 | KRAS | target engagement in cells, BRET |  |  |  | IC50 | 1500 nM |
| CCn1cnc2c(NCc3nc4cc(Cl)c(Cl)cc4[nH]3)nc(N3CCN(C(C)=O)CC3)nc21 | MDA-MB-468 | cell viability, CellCounting-Lite |  | 0.3048 nM, 37 °C | higher = more viable cells | luminescence signal | 464000 a.u. and 519000 a.u. and 478000 a.u. |
| Cc1nc(C)c(C=[N+]([O-])C(C)(C)C)nc1C | PC-12 | Seahorse |  | 100 µM, 52.67 min, pretreatment 0.8778 h, added: MPP+ |  | oxygen consumption rate | 798 pmol/min and 656 pmol/min and 735 pmol/min and 752 pmol/min and 684 pmol/min |
| CCn1cnc2c(NCc3nc4cc(F)c(F)cc4[nH]3)nc(N3CCn4ncnc4C3)nc21 | MDA-MB-468 | cell growth or viability |  | 5 days |  | EC50 | 92.2 nM |
| CC[C@@]1(c2cccc(C(F)(F)F)c2)C2=C(Nc3n[nH]cc31)[C@H](F)C(C)(C)CC2=O (single isomer, unassigned) |  |  | human plasma |  |  | fraction unbound | 0.0197 |
| CCNC(=O)COc1ccc(Br)c(C)c1 | SLC6A19 | inhibitor, L-[14C]leucine uptake | CHO-BC cells | 0.03 µM, 6 min, 37 °C, unit not given, added: GPNA 3 mM, JPH203 3 µM | reference: uninhibited cells | remaining transport activity | 1.03 |
| COc1ccc(Cl)cc1-c1cc(=O)[nH]c(=S)n1CC(N)=O | Myeloperoxidase (MPO, Homo sapiens, UniProt P05164) | enzyme activity, inhibitor |  | 10 µM |  | remaining activity | 3.23% |
| C#Cc1cccc2cc(O)cc(-c3ncc4c(N5CC6CCC(C5)N6)nc(OCC56CCCN5CCC6)nc4c3F)c12 | GTPase HRas (HRAS, Homo sapiens, UniProt P01112) | binding, competitor, NanoBRET | HEK293 | 13.7 nM |  | normalized BRET | 103% and 113% and 95.6% and 106% |
| CNC(=O)COc1cc(C)c(Cl)c(C)c1 | SLC6A19 | inhibitor, FLIPR membrane potential | CHO-BC cells | 0.1 µM, unit not given | reference: no inhibitor | remaining transport activity | 1.04 |
| CN1CCC[C@H]1COc1nc2c(c(N3CCN(C(=O)C(F)(F)F)[C@@H](CC#N)C3)n1)CCN(c1cccc3cccc(Cl)c13)C2 | KRAS | target engagement in cells, BRET |  |  |  | IC50 | 3200 nM |
| Cn1cc(-n2cnc3c(NCc4nc5cc(Cl)c(Cl)cc5[nH]4)nc(N4CCNCC4)nc32)cn1 | MDA-MB-468 | cell viability, CellCounting-Lite |  | 2000 nM, 37 °C | higher = more viable cells | luminescence signal | 54700 a.u. and 63000 a.u. and 62200 a.u. |
| CCCNC(=O)COc1ccc(I)c(C)c1 | SLC6A19 | inhibitor, L-[14C]leucine uptake | CHO-BC cells | 0.03 µM, 6 min, 37 °C, unit not given, added: GPNA 3 mM, JPH203 3 µM | reference: uninhibited cells | remaining transport activity | 0.77 |

A few entries again (block 5):
| Compound | hypocotyl length |
| --- | --- |
| CC(C)(C)c1ccc(Oc2ccc3c(c2)OC(O)(C(=O)O)C(=O)N3Cc2ccccc2)cc1 (centres unmarked) | 1.65 cm and 1.61 cm and 1.62 cm and 1.64 cm |
| O=C(O)C1(O)Oc2cc(Cl)ccc2N(Cc2ccccc2)C1=O (centres unmarked) | 1.32 cm and 1.3 cm and 1.31 cm and 1.36 cm and 1.35 cm |
| Cc1ccc2c(c1)OC(O)(C(=O)O)C(=O)N2Cc1ccccc1 (centres unmarked) | 1.62 cm and 1.63 cm and 1.69 cm and 1.68 cm |
| CCN1C(=O)C(O)(C(=O)O)Oc2cc(F)ccc21 (centres unmarked) | 1.61 cm and 1.63 cm and 1.62 cm and 1.65 cm |
| O=C(O)C1(O)Oc2ccccc2N(Cc2ccccc2)C1=O (centres unmarked) | 1.45 cm and 1.47 cm and 1.43 cm and 1.46 cm |
